{"data": "Measurements pooled from the literature", "UCHL1": "Ubiquitin carboxyl-terminal hydrolase isozyme L1 (UCHL1, Homo sapiens, UniProt P09936)", "note": "± gives the spread as reported.", "chain of UniProt P09936 (whole entry, looked up)": "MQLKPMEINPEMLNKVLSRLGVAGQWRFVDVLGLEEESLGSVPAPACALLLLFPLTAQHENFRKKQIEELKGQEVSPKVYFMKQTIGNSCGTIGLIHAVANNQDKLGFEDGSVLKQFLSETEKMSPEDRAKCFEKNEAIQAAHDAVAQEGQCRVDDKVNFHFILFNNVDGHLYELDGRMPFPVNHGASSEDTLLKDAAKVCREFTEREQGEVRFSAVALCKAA"}
{"SMILES": "CCNCCCNC/C=C\\CNCCCNCC", "assay": "LC-MS/MS", "test system": "human cancer patients, plasma", "conditions": "intravenous infusion 60 min, 50 mg, median, cycle 1", "endpoint": "mean residence time", "result": "3.59 h"}
{"SMILES": "C=CC(=O)N(C)CCOc1c(N)ncnc1-c1cc(F)cc(NC(=O)c2ccc(C3CC3)cc2F)c1C", "test system": "human, whole blood", "conditions": "oral, 400 mg, single ascending dose", "endpoint": "mean residence time", "result": "3.76 h"}
{"SMILES": "C[C@H](CCC(=O)O)[C@H]1CC[C@H]2[C@@H]3CC[C@@H]4C[C@H](OS(=O)(=O)O)CC[C@]4(C)[C@H]3CC[C@]12C", "test system": "human, plasma", "conditions": "control", "endpoint": "mean daily plasma concentration", "result": "308 ± 21 nM"}
{"SMILES": "CCc1ccc(-c2ccc(-c3cc(F)c(F)c(F)c3)c(F)c2)cc1", "test system": "human mother-newborn pairs, cord serum", "endpoint": "mean serum concentration", "result": "0.49 ng/mL"}
{"SMILES": "CC(Cl)C(=O)Nc1ccc(C(=O)N(C)C2CCCN(C)C2)cc1 (stereo not drawn)", "target or system": "UCHL1", "assay": "covalent, intact protein LC-MS", "conditions": "12.5 µM", "endpoint": "labelling", "result": "9.78%"}
{"SMILES": "COc1cc(C(=O)O)ccc1NC(=O)[C@@H]1N[C@@H](CC(C)(C)C)[C@](C#N)(c2ccc(Cl)cc2F)[C@H]1c1cccc(Cl)c1F", "test system": "human, plasma", "conditions": "200 mg, steady state, with: venetoclax 600 mg", "endpoint": "mean Ctrough", "result": "2.72 µg/mL"}
{"SMILES": "O=C(O)CCCCCCCCCCCCCCC(=O)O", "test system": "human, plasma", "conditions": "oral, dose not given, control", "endpoint": "mean daily plasma concentration", "result": "161 ± 21 nM"}
{"SMILES": "C[C@@H](O)CCOC(=O)C[C@@H](C)O", "test system": "human", "conditions": "oral drink, dose not given, 180 min post dose, mean", "endpoint": "mean arterial pressure", "result": "83 mmHg"}
{"SMILES": "CCc1ccc(C(=O)Oc2ccc(C#N)c(F)c2)cc1", "test system": "human mother-newborn pairs, cord serum", "endpoint": "mean serum concentration", "result": "2.34 ng/mL"}
{"SMILES": "N#Cc1ccc2c(c1)[C@H]1CCCN(C(=O)c3ccc4[nH]cnc4c3)[C@H]1C2", "test system": "human", "conditions": "240 mg, end of trial", "endpoint": "mean ACTH level", "result": "5.7 pmol/L"}
{"SMILES": "Cn1cc(-c2cn3nccc3c(-c3cnn([C@]4(CC#N)C[C@@H](C#N)C4)c3)n2)cn1", "test system": "healthy humans fasted, plasma", "conditions": "30 mg single dose, geometric mean", "endpoint": "mean residence time", "result": "17 h"}
{"SMILES": "Cc1ccc(Sc2ccccc2N2CCNCC2)c(C)c1", "test system": "healthy male humans fed, plasma", "conditions": "oral, 10 mg single, high-fat breakfast", "endpoint": "mean half-life", "result": "68.1 h"}
{"SMILES": "CCCC1CCC(c2ccc(-c3ccc(CC)cc3)cc2)CC1 (stereo not drawn)", "test system": "human mother-newborn pairs, maternal serum", "endpoint": "mean serum concentration", "result": "0.31 ng/mL"}
{"SMILES": "O=C(O)[C@H]1O[C@@H](Oc2cc(O)cc(/C=C/c3ccc(O)cc3)c2)[C@H](O)[C@@H](O)[C@@H]1O", "test system": "human, plasma", "endpoint": "mean concentration", "result": "2600 nM"}
{"SMILES": "C[C@H](CCC(=O)O)[C@H]1CC[C@H]2[C@@H]3[C@H](O)C[C@@H]4C[C@H](O)CC[C@]4(C)[C@H]3CC[C@]12C", "test system": "human, plasma", "conditions": "oral, dose not given, control", "endpoint": "mean daily plasma concentration", "result": "582 ± 140 nM"}
{"SMILES": "CC=CC1CCC(C2CCC(CCC)CC2)CC1 (stereo not drawn)", "test system": "human mother-newborn pairs, female fetuses, cord serum", "endpoint": "mean serum concentration", "result": "1.01 ng/mL"}
{"SMILES": "CCc1ccc(CN2CCCC(CNC(=O)c3cccc(OC)c3OC)C2)cc1 (stereo not drawn)", "target or system": "Trypanosoma cruzi", "assay": "reporter translation, Renilla luciferase mRNA translation", "test system": "cell-free extract", "conditions": "40 µM", "how to read": "baseline: DMSO", "endpoint": "inhibition", "result": "-7.3%"}
{"SMILES": "C[C@H](CCC(=O)NCC(=O)O)[C@H]1CC[C@H]2[C@@H]3[C@H](O)C[C@@H]4C[C@H](O)CC[C@]4(C)[C@H]3C[C@H](O)[C@]12C", "test system": "human, plasma", "conditions": "oral, dose not given, control", "endpoint": "mean daily plasma concentration", "result": "81.7 ± 9.9 nM"}
{"SMILES": "N#CC(=Cc1ccccc1OC(F)F)C(=O)Nc1ccccc1Cl", "target or system": "UCHL1", "assay": "covalent, intact protein LC-MS", "conditions": "12.5 µM", "endpoint": "labelling", "result": "34.1%"}
{"SMILES": "CCCC1CCC(c2ccc(OCC)c(F)c2F)CC1 (stereo not drawn)", "test system": "human mother-newborn pairs, female fetuses, cord serum", "endpoint": "mean serum concentration", "result": "0.43 ng/mL"}
{"SMILES": "Cc1ccc(O)c(-n2nc3ccccc3n2)c1", "assay": "exposure assessment", "test system": "human, age 2-3 years", "conditions": "spray sunscreen", "endpoint": "mean daily dermal uptake", "result": "1210 ng/kg body weight/day"}
